Experimental data from different studies.
Parts stem from different laboratories: compare values within a part only. Substitutions count along the parent as printed.

Block 1 — technique: protein binding microarray; molecule type: double-stranded DNA, one strand shown; medium: in vitro; concentration: not given; baseline: not given; reading: higher = stronger binding; endpoint: E-score
Target: Histone acetyltransferase KAT6A, winged helix 1, GST fusion (KAT6A, Homo sapiens, UniProt Q92794, residues 1-85)
Setting: 8-mer, flanks averaged, mean of 2 arrays, mostly near background
Construct (chain): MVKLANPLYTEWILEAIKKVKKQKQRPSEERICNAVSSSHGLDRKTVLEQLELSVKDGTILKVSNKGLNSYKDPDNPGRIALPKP
CGCTTCCA: 0.203
CTCTTGCA: -0.197
CAGTCGGA: 0.0101
CAACCTAC: -0.0867
AACTGACC: 0.000925
AGAAATAA: -0.217
TAGACTGA: -0.0262
CATGGATA: -0.199

Block 2 — technique: protein-binding microarray; molecule type: hairpin DNA; medium: in vitro; concentration: not given; baseline: not given; reading: higher = stronger binding; endpoint: median fluorescence
Target: Interferon regulatory factor 1, DNA-binding domain (IRF1, Homo sapiens, UniProt P10914, residues 1-114)
Setting: whole hairpin DNA, median over replicate spots
Construct (chain): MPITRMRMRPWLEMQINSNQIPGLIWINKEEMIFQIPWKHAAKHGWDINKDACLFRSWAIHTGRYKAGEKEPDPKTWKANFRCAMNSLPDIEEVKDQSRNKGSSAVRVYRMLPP
GAGGCCCCGAAGCGAAACGCCTCCTGGCGTTTCGCTTCGGGGCCTCACAC: 581 a.u.
GAGGCCCGAAAGCCAAACGCCTCCTGGCGTTTGGCTTTCGGGCCTCACAC: 524 a.u.
GAGGCCCGAAAGTGACGCGCCTCCTGGCGCGTCACTTTCGGGCCTCACAC (5mC at 30): 542 a.u.
GAGGCCCGAAAGCGAAACGCCTCCTGGCGTTTCGCTTTCGGGCCTCACAC (5mC at 7 39): 1150 a.u.
GAGGCCCGAAAGTGAACGGCCTCCTGGCCGTTCACTTTCGGGCCTCACAC: 536 a.u.
GAGGCCCGGAAGTGAAACGCCTCCTGGCGTTTCACTTCCGGGCCTCACAC (5mC at 38): 656 a.u.
GAGGCCCGAAAGCGAAACGCCTCCTGGCGTTTCGCTTTCGGGCCTCACAC: 1910 a.u.
GAGGCCCGACGGCGAAACGCCTCCTGGCGTTTCGCCGTCGGGCCTCACAC (5mC at 36): 512 a.u.

Mixed results
P1: viral docking peptide; YKVKRRLVFGADD; partner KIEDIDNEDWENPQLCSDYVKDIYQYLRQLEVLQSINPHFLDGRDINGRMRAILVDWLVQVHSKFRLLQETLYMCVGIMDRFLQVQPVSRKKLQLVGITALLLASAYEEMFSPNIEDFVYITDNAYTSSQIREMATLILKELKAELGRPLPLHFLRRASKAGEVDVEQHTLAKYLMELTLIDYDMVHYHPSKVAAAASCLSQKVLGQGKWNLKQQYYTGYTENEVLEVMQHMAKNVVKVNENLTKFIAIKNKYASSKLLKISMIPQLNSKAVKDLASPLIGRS
P2: PafA, mature enzyme, eGFP fusion (Elizabethkingia meningoseptica, UniProt Q9KJX5); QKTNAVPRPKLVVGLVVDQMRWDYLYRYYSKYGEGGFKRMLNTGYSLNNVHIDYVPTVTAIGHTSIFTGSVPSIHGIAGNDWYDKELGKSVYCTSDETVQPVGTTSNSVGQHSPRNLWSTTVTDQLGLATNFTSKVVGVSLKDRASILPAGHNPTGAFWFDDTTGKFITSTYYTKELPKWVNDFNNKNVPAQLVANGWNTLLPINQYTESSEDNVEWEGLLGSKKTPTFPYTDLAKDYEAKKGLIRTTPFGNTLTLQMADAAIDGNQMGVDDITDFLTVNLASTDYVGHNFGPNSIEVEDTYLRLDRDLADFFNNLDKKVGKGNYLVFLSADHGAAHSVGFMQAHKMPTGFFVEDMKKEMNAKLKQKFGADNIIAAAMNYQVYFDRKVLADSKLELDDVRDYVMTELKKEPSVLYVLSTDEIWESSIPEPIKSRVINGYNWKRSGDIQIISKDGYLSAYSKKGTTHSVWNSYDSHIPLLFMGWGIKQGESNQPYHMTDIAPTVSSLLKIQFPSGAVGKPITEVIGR
P1 D12P  normalised enrichment score (CCNB2, cyclin fold, Cln2 fusion (human); yeast growth competition, sequencing; yeast; strong parent motif; baseline: not given, higher = stronger binding): 1.39
P2 W469V  phosphate dissociation constant (inorganic phosphate, free oxyanion; microfluidic competitive inhibition; in vitro, cell-free expressed; not given, derived from inhibition constants, unchanged parent 615000 nM; lower = stronger binding): 302 µM

Excerpt of the above (block 2):
GAGGCCCGAAAGTGAACGGCCTCCTGGCCGTTCACTTTCGGGCCTCACAC: 536 a.u.
GAGGCCCGGAAGTGAAACGCCTCCTGGCGTTTCACTTCCGGGCCTCACAC (5mC at 38): 656 a.u.
